Experimental data of several laboratories.
Compare with care: the assays were run in different laboratories. Values joined by “and” are separate records of one study, mostly repeats; a detail may differ. Numbers after ± are the reported error.
Chain of UniProt Q9UNQ0 (whole entry, looked up): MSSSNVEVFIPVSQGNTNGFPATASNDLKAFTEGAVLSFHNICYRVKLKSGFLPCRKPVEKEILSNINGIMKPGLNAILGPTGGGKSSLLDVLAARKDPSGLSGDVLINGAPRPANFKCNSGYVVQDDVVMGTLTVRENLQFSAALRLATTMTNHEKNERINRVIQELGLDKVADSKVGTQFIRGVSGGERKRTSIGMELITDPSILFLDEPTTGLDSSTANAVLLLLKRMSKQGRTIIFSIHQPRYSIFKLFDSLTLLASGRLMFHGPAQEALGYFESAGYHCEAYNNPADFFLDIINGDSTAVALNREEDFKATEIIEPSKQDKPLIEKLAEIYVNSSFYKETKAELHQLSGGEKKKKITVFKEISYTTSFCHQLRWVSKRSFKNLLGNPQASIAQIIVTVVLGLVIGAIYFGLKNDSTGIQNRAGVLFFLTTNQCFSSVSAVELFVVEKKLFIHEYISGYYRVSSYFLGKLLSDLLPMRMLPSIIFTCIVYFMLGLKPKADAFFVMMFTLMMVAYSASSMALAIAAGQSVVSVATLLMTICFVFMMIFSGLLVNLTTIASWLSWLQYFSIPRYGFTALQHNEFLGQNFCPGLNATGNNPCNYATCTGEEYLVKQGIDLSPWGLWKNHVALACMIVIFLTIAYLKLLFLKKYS
Chain of UniProt O94804 (whole entry, looked up): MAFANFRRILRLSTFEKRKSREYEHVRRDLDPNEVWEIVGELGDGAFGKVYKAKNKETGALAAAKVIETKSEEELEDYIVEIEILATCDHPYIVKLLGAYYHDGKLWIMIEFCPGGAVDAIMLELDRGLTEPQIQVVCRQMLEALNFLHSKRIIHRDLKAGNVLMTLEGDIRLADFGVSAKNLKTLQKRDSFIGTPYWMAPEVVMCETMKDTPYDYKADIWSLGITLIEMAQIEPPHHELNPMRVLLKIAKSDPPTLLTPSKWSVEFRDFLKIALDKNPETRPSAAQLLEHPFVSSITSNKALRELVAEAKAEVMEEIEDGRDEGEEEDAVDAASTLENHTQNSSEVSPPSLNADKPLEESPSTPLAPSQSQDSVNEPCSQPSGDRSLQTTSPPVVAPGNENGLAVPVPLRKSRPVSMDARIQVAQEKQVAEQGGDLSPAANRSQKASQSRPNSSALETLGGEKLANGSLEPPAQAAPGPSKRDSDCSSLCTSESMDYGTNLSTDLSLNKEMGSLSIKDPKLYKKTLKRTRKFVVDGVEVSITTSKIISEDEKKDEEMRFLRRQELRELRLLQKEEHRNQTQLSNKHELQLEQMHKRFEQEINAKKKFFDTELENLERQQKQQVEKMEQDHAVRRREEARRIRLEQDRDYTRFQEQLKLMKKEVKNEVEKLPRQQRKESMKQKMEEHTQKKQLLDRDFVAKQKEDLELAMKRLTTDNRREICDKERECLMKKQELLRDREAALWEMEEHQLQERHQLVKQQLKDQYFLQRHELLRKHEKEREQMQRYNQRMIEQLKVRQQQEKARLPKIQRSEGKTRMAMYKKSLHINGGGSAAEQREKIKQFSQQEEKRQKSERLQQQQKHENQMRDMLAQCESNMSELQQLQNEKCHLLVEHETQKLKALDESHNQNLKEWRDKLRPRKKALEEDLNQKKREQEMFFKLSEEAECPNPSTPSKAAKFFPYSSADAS
Chain of UniProt O14757 (whole entry, looked up): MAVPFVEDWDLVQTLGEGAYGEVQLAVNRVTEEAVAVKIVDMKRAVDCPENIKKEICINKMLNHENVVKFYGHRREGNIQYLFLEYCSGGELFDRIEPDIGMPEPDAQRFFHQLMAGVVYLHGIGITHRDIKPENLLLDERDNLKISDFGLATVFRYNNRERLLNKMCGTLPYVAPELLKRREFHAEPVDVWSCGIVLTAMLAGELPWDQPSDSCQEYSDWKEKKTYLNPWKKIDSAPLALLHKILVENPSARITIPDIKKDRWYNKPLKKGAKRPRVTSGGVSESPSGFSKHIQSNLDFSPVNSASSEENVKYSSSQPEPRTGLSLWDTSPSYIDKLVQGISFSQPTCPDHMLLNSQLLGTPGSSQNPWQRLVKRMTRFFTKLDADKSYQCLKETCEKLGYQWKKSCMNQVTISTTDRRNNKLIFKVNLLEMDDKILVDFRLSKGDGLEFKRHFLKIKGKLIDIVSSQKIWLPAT

SMILES | target or system | assay | test system | setting | scale | measurement | result
Cc1ccc(OC[C@@H]2CCN2C)cc1C(=O)N[C@H](C)c1cc(-c2cnn(C)c2)nc2ccccc12 | African green monkey cells |  |  | 31.25 µM |  | viability | 93.8%
O=c1n(CCNCCOS(=O)(=O)c2ccccc2)c(=O)n(S(=O)(=O)c2ccccc2)c(=O)n1S(=O)(=O)c1ccccc1 | HUVEC | cell growth or viability, MTT |  | 100 µg/mL, 72 h |  | viability | 13.3%
CC(C)(C)C(=O)OCOP(=O)(OCOC(=O)C(C)(C)C)C1CCCN(O)C1=O (stereo not drawn) | M14 |  |  |  |  | CC50 | 63.2 µM
CCCCCCCCCCCCCCCC(=O)OCC(CSC[C@H](N)C(=O)N[C@@H](CO)C(=O)N[C@@H](CCCCN)C(=O)N[C@@H](CCCCN)C(=O)N[C@@H](CCCCN)C(=O)N[C@@H](CCCCN)C(=O)O)OC(=O)CCCCCCCCCCCCCCC (stereo partly drawn) | HFF-1 |  |  | 0.01 µg/mL, 48 h |  | viability | 85.8%
COc1ccccc1-c1n[nH]c2nc(NC3CCN(C(=O)Cc4ccc(F)cc4F)CC3)ncc12 |  | bead binding, competition bead pull-down, item: LMJF.04.1230 | Leishmania donovani axenic amastigote extract | 10 µM | baseline: vehicle | relative abundance | 1.09
O=C1NC2(CC2)COc2ncc(F)cc2[C@H]2COCCN2c2ccn3ncc1c3n2 |  |  | Sprague-Dawley rat, male, adrenals | oral, 2.5 mg/kg/day, 4 weeks dosing, end of recovery |  | organ-to-brain weight ratio | 2.66 ± 0.17%
CCn1ccc(-c2cc([C@@H](C)NC(=O)c3cc(OC[C@@H]4CCCN4C)ccc3C)c3ccccc3n2)n1 | Vero E6 |  |  | 15.62 µM |  | viability | 86.2% and 89% and 85.4%
Cc1nc2cccc(OCC(C)(C)C(=O)NC(C)C)c2c(N)c1C(=O)[O-].[Na+] | Escherichia coli | Ames plate incorporation | WP2 uvrA | 0.13 mg/plate, with: with rat liver S9 |  | revertant colonies | 34 ± 1 colonies/plate
CNC(=O)C[C@H](Cc1ccc(F)cc1)NC(=O)[C@@H](Cc1ccc(Cl)cc1Cl)NC(=O)[C@H](N)Cc1ccccc1[N+](=O)[O-] | Huh-7-ACE2 | CellTiter-Glo |  | 12.5 µM, 48 h, unit not given | baseline: DMSO | viability | 0.812 and 0.883 and 1.01
Cc1ccc(N2CCN(C)C3(CC3)C2)cc1C(=O)N[C@H](C)c1cc(-c2cnn(C)c2)nc2ccccc12 | Vero E6 |  |  | 500 µM |  | viability | 6.46% and 5.42% and 7.08%
CCOc1ccc(CN2CC[C@H]2C(=O)NC)cc1-c1cccc(C(=O)NC[C@@H]2COC(C)(C)O2)c1 | Huh-7-ACE2 | CellTiter-Glo |  | 0.00153 µM, 48 h, unit not given | baseline: DMSO | viability | 1.07 and 1.15 and 0.997
NC(=S)N/N=C/c1ccc(OCc2cccc(F)c2)cc1 | IMR-32 | MTT |  | 200 µg/mL, 24 h | baseline: untreated control | viability | 57%
CCCCCCCCCCCCCCCC(=O)OCC(CSC[C@H](N)C(=O)NCC(=O)N[C@@H](CC(=O)O)C(=O)N1CCC[C@H]1C(=O)N[C@@H](CCCCN)C(=O)N[C@@H](Cc1c[nH]cn1)C(=O)N1CCC[C@H]1C(=O)N[C@@H](CCCCN)C(=O)N[C@@H](CO)C(=O)N[C@@H](Cc1ccccc1)C(=O)O)OC(=O)CCCCCCCCCCCCCCC (stereo partly drawn) | HFF-1 |  |  | 10 µg/mL, 48 h |  | viability | 100%
CNC(=O)C[C@H](Cc1ccccc1)NC(=O)[C@@H](Cc1ccc(Cl)cc1Cl)NC(=O)[C@H](N)Cc1ccccc1C#N | Huh-7-ACE2 | CellTiter-Glo |  | 3.125 µM, 48 h, unit not given | baseline: DMSO | viability | 0.876 and 0.904 and 0.81
CCCCCCCCCCCCCCCC(=O)N[C@@H](CSCC(COC(=O)CCCCCCCCCCCCCCC)OC(=O)CCCCCCCCCCCCCCC)C(=O)N[C@@H](CO)C(=O)N[C@@H](CCCCN)C(=O)N[C@@H](CCCCN)C(=O)N[C@@H](CCCCN)C(=O)N[C@@H](CCCCN)C(=O)O (stereo partly drawn) | HFF-1 |  |  | 10 µg/mL, 48 h |  | viability | 104%
NC(=S)N/N=C/c1ccc(OCc2ccccc2)cc1 | IMR-32 | MTT |  | 50 µg/mL, 24 h | baseline: untreated control | viability | 92.5%
CS(C)(=O)=Nc1ccc(-c2ccc(-c3nc4cc(O[C@@H]5CO[C@H]6[C@@H]5OC[C@H]6O)[nH]c4cc3F)cc2)cc1 | CHEK1 (Homo sapiens, UniProt O14757) | enzyme activity, inhibitor |  | 10 µM |  | inhibition | -2%
NC(=O)N/N=C/c1ccc(OCc2cccc(F)c2)cc1 | IMR-32 | MTT |  | 500 µg/mL, 24 h | baseline: untreated control | viability | 38.1%
Cc1ccc(N(C)CCN2CCOCC2)cc1C(=O)N[C@H](C)c1cc(-c2cnn(C)c2)nc2ccccc12 | Vero E6 |  |  | 31.25 µM |  | viability | 94.4% and 96.2% and 93.5%
CN(C)[C@H]1C[C@@]23CC[C@@]4(O2)C(=CC[C@]2(C)[C@@H](c5ccc6ccncc6c5)CC[C@H]24)C=C3[C@@H](O)[C@@H]1O | STK10 (Homo sapiens, UniProt O94804) | ATP probe labelling, inhibitor, KiNativ profiling |  | 0.1 µM |  | inhibition | 1.7%
Cc1ccc(OCCN(C)C)cc1C(=O)N[C@H](C)c1cc(-c2cccnc2N2CCCC2)nc2ccccc12 | Vero E6 |  |  | 15.62 µM |  | viability | 102% and 103%
CNC(=O)CC[C@H](Cc1ccccc1)NC(=O)[C@@H](Cc1ccc(Cl)cc1Cl)NC(=O)[C@H](N)Cc1ccccc1[N+](=O)[O-] | Huh-7-ACE2 | CellTiter-Glo |  | 0.391 µM, 48 h, unit not given | baseline: DMSO | viability | 1.07 and 1.06 and 0.982
CC(=O)NCCCC[C@@H]1NC(=O)[C@H](Cc2c[nH]c3c(C)cccc23)NC(=O)[C@H]([C@@H](C)O)NC(=O)[C@H](CC(N)=O)NC(=O)[C@@H](NC(C)=O)C(C)(C)SSC(C)(C)[C@@H](C(=O)N[C@@H](Cc2ccc(OCCN)cc2)C(=O)N[C@@H](Cc2ccc3ccccc3c2)C(=O)NC2(C(=O)N[C@@H](CCC(=O)O)C(=O)N[C@@H](CC(N)=O)C(=O)N[C@@H](Cc3cccnc3)C(=O)N(C)CC(N)=O)CCOCC2)NC1=O | ABCG2 (Homo sapiens, UniProt Q9UNQ0) | transport, inhibitor | LLC-PK1 expressing ABCG2 | 0.182 µM, 90 min, with: [3H]prazosin |  | efflux ratio | 10.6
CC[C@H](C)[C@H](NC(=O)[C@H](CO)NC(=O)[C@H](Cc1ccc(O)cc1)NC(=O)[C@H](Cc1ccc(O)cc1)NC(=O)[C@H](CC(N)=O)NC(=O)CNC(=O)[C@H](CO)NC(=O)[C@H](Cc1ccc(O)cc1)NC(=O)[C@H](CO)NC(=O)[C@H](CO)NC(=O)[C@H](CC(N)=O)NC(=O)COCCOCCNC(=O)CN1CCN(CC(=O)O)CCN(CC(=O)O)CCN(CC(=O)O)CC1)C(=O)N[C@@H](CC(C)C)C(N)=O [copper-64 labelled] |  | dynamic PET | tamoxifen-induced PDAC mouse model, metastases | 0.6 min, CLDN4-expressing tumours |  | maximum metastasis uptake | 22.4 %IA/cc

Excerpt of the above:
SMILES | target or system | assay | test system | setting | scale | measurement | result
CNC(=O)C[C@H](Cc1ccccc1)NC(=O)[C@@H](Cc1ccc(Cl)cc1Cl)NC(=O)[C@H](N)Cc1ccccc1C#N | Huh-7-ACE2 | CellTiter-Glo |  | 3.125 µM, 48 h, unit not given | baseline: DMSO | viability | 0.876 and 0.904 and 0.81
CCCCCCCCCCCCCCCC(=O)N[C@@H](CSCC(COC(=O)CCCCCCCCCCCCCCC)OC(=O)CCCCCCCCCCCCCCC)C(=O)N[C@@H](CO)C(=O)N[C@@H](CCCCN)C(=O)N[C@@H](CCCCN)C(=O)N[C@@H](CCCCN)C(=O)N[C@@H](CCCCN)C(=O)O (stereo partly drawn) | HFF-1 |  |  | 10 µg/mL, 48 h |  | viability | 104%
